Results of several laboratories.
Protocols differ between the studies behind these lines. “And” joins repeats or separate records; there may be more than shown. ± gives the spread as reported.
ALB: Albumin (ALB, Homo sapiens, UniProt P02768)

target | assay | system | conditions | how to read | quantity | value | SMILES
uncharacterized protein (Spodoptera exigua, UniProt F1CEY0) | binding, competitor, fluorescence displacement | – | 20 µM, pH 7.4, with: 1-NPN 20 µM | baseline: 1-NPN alone | relative fluorescence | 69.2% | CC(C)c1ccccc1
Carbonic anhydrase 2 (CA2, Homo sapiens, UniProt P00918, L197G) | p-nitrophenyl acetate hydrolysis | – | – | baseline: wild type over L198G mutant | Ki ratio | 1.6 fold | Oc1cccccc1=S
ALB | fluorescence quenching | – | 310 K | – | Stern-Volmer quenching constant | 15000 L/mol | O=c1cc(CO)occ1[O-].[Cl-].[W+4].c1cc[cH-]c1.c1cc[cH-]c1
Tyrosine-protein kinase JAK1 (JAK1, Homo sapiens, UniProt P23458) | ATP/ADP probe binding, KiNativ | HEK293T lysate | 0.1 µM, Lys1 peptide domain 2 | – | probe labelling inhibition | -0.1% | Cc1cc(-c2ccnc3[nH]cc(F)c23)cc(F)c1[C@@]1(O)[C@H](C)CN(C(=O)CN)C[C@@H]1C
Glutamate receptor ionotropic, NMDA 1, with GluN2C (Grin1, Rattus norvegicus, UniProt P35439) | – | – | with: glutamate 300 µM | – | Hill slope | 1.57 | COc1cccc(F)c1-c1ccc(C(=O)NC[C@@H](N)C(=O)O)s1
P2X purinoceptor 1 (P2RX1, Homo sapiens, UniProt P51575, K215A) | calcium influx | – | 316 nM | baseline: ionomycin response | calcium influx | 100% and 99.3% and 87.2% | Nc1ncnc2c1ncn2[C@@H]1O[C@H](COP(=O)(O)CP(=O)(O)OP(=O)(O)O)[C@@H](O)[C@H]1O
ALB | van't Hoff analysis | – | concentration not given | – | binding entropy change | 0.04 kJ/(mol·K) | OC[C@H]1O[C@@H](Oc2cc3c(O)cc(O)cc3[o+]c2-c2ccc(O)c(O)c2)[C@H](O)[C@@H](O)[C@@H]1O
Glutamate receptor ionotropic, NMDA 1 (Grin1, Rattus norvegicus, UniProt P35439) | radioligand binding, item: glycine site binding | – | 10 µM | – | inhibition | < 50% | NC/C(=C\F)COc1cccc(Cn2c(=S)[nH]c(=O)c3[nH]cnc32)c1
Histone deacetylase 8 (HDAC8, Homo sapiens, UniProt Q9BY41) | ITC | Tris-HCl buffer | 283 K | – | TΔS° | 1.77 kcal/mol | O=C(CCCCCCC(=O)Nc1ccccc1)NO
Puromycin-sensitive aminopeptidase (Rattus norvegicus, UniProt F1M9V7) | substrate | – | MW 100 kDa | – | kcat | 27.2 s⁻¹ | NC(N)=NCCC[C@H](N)C(=O)Nc1ccc2ccccc2c1
GUK1 (Homo sapiens, UniProt Q16774, S37P) | enzyme activity, NADH-coupled | – | 62.5 µM | – | reaction rate | 0.389 s⁻¹ and 1.44 s⁻¹ and 0.447 s⁻¹ | Nc1nc2c(ncn2[C@@H]2O[C@H](COP(=O)(O)O)[C@@H](O)[C@H]2O)c(=O)[nH]1
GTPase KRas, GDP-bound (KRAS, Homo sapiens, UniProt P01116, G12D) | affinity selection mass spectrometry | – | mixture library 3, with: protein titration up to 2.5 µM | lower is stronger binding | lowest bound protein concentration | 0.62 µM | CC[C@H](C)[C@@H]1NC(=O)[C@H](Cc2ccc(-c3ccccc3)cc2)NC(=O)[C@H](CC2CCCCC2)NC(=O)[C@@H]2[C@@H](c3ccccc3)CCN2C(=O)[C@@H](NC(=O)[C@H](CCCNC(=N)N)NC(=O)[C@H](CCCNC(=N)N)NC(C)=O)CSSC[C@@H](C(=O)N[C@@H](CCCNC(=N)N)C(=O)N[C@@H](CCCNC(=N)N)C(N)=O)NC(=O)[C@H](C(C)C)NC(=O)[C@@H]2CCCN2C(=O)[C@H](CC(=O)O)NC(=O)[C@H](Cc2ccc(O)cc2)NC(=O)[C@H](CO)NC1=O
DNA dC->dU-editing enzyme APOBEC-3A (Homo sapiens, UniProt P31941) | covalent modifier, intact protein mass spectrometry, item: adduct +26691 Da | – | 25 µM, 3 h, 1-fold molar excess | – | protein adduct | 0% | CCC1(O)CCCN(C(=O)c2ccc(-c3ccc(F)c(NC(=O)CCl)c3)cc2)C1 (stereo not drawn)
Glycine--tRNA ligase (Homo sapiens, UniProt P41250) | thermal proteome profiling, item: GARS | HepG2 cell lysate | concentration not given, 57 over 37 °C, mean | baseline: compound over control | thermal stability ratio | 0.595 | O=C(COP(=O)(O)O)[C@@H](O)[C@H](O)[C@H](O)COP(=O)(O)O
Adenosine receptor A2a (ADORA2A, Homo sapiens, UniProt P29274) | binding, radioligand competition | – | 30 µM, with: [3H]ZM241385 | – | displacement | 24 ± 4% | Cn1c(=O)c2ccc(C(=O)Nc3ccccc3F)nc2n(C)c1=O

A few entries again:
target | assay | system | conditions | how to read | quantity | value | SMILES
Puromycin-sensitive aminopeptidase (Rattus norvegicus, UniProt F1M9V7) | substrate | – | MW 100 kDa | – | kcat | 27.2 s⁻¹ | NC(N)=NCCC[C@H](N)C(=O)Nc1ccc2ccccc2c1
GUK1 (Homo sapiens, UniProt Q16774, S37P) | enzyme activity, NADH-coupled | – | 62.5 µM | – | reaction rate | 0.389 s⁻¹ and 1.44 s⁻¹ and 0.447 s⁻¹ | Nc1nc2c(ncn2[C@@H]2O[C@H](COP(=O)(O)O)[C@@H](O)[C@H]2O)c(=O)[nH]1
